Published values gathered from unrelated publications.
± gives the spread as reported.

SMILES	cell line	test	conditions	IC50
[Cl][Pd-]1([Cl])[S]C(Nc2ccccc2)=N[N+]1=Cc1ccc(-c2ccccc2)s1	CRFK	cell growth or viability		> 100 µM
Cc1cc(C=O)cc(C)c1Oc1cc(Nc2ccc(C#N)cc2)nc2ccncc12	MOLT-3		48 h	17.6 ± 7.8 µM
NS(=O)(=O)c1ccc(NC(=O)NN[C@@H]2O[C@H](CO)[C@@H](O)[C@H](O)[C@H]2O)cc1	HCEC	cell growth or viability, MTT	96 h	> 100 µM
COc1ccc(/C=C/C2=[N+]3C(=C(CO)c4c(C)cc(/C=C/c5ccc(OC)cc5)n4[B-]3(C)C)C(C)=C2)cc1	RPE-1	cell growth or viability, resazurin	dark	> 100 µM
CC(=O)[O-].O.O.O.O.[Co+2].[O-]c1ccc(Br)cc1C=NCCN1CCOCC1	NHDF normal fibroblasts	cell viability, MTT	72 h	58.2 µg/mL
CC1(C)C=Cc2c(O)cc(/C=C/c3ccc(O)cc3O)cc2O1	SAS	cell growth or viability, MTT	72 h	22 µM
O=C1c2ccc3c4ccc5c6c(ccc(c7ccc(c2c37)C(=O)N1CCN1CCCCC1)c64)C(=O)N(CCN1CCCCC1)C5=O	human PBMC	cell growth or viability, SRB	72 h	318 µM
CC(C)CCO	SK-N-SH	cell growth or viability, MTT	24 h	> 5000 µM
C=C[C@H](OC(C)=O)c1ccc(OC(C)=O)cc1	EJ-28	cell growth or viability, MTT	24 h	8.2 µM
Cc1cc(C=O)cc(C)c1Oc1cc(Nc2ccc(C#N)cn2)nc2cnccc12	MOLT-3		48 h	14.9 ± 5.6 µM
COc1ccc([C@@H]2CC(=O)c3c(O)cc(O[C@@H]4O[C@H](CO[C@@H]5O[C@@H](C)[C@H](O)[C@@H](O)[C@H]5O)[C@@H](O)[C@H](O)[C@H]4O)cc3O2)cc1O	A549	cell growth or viability, MTS	72 h	58.7 µg/mL
C=C1C(=O)[C@@]23CC[C@@H]4[C@](C)(COC(C)=O)CCC[C@@]4(COC(C)=O)[C@@H]2[C@@H](O)C[C@@H]1C3	786-0	cell growth or viability, MTT		> 20 µM
CCCCOc1nc(N)c2[nH]c(=O)n(CCCN(CCCN3CCOCC3)Cc3cccc(CC(=O)OC)c3)c2n1	human PBMC	IL-5 release	2 d, added: PHA	0.001 µM
S=c1n(-c2ccccc2)c2c3ccccc3nc3[n+]2[n]1[Ir-3]12([S]3)([c]3ccccc3-c3sc4ccccc4[n+]31)[c]1ccccc1-c1sc3ccccc3[n+]12	MRC9	cell viability, MTT	irradiation 450 nm, 15.5 mW/cm^2, 15 min	> 50 µM
C[C@@H]1[C@H](O)[C@@H](C)/C=C/C=C/C=C/C=C/C=C/C=C/C=C/[C@H](O[C@@H]2O[C@H](C)[C@@H](O)[C@H](N)[C@@H]2O)C[C@@H]2O[C@](O)(C[C@@H](O)C[C@@H](O)[C@H](O)CC[C@@H](O)C[C@@H](O)CC(=O)O[C@H]1C)C[C@H](O)[C@H]2C(=O)O	HK-2	cell growth, SRB	24 h	3.7 µM
C=CC(OC(C)=O)c1cc(OC)cc(OC)c1 (stereo not drawn)	EJ-28	MTT	24 h	> 50 µM
O=[N+]([O-])c1ccc(C=[N+]2N=C(Nc3ccccc3)[S][Pd-]2([Cl])[Cl])s1	CEM human lymphocytes	cell proliferation		30 µM
CC(=O)c1cnc(N)nc1N1CC[C@H]1c1nn2ccc(Cl)c2c(=O)n1-c1ccccc1	human CD4 T cells	cell proliferation	added: anti-CD3/anti-CD28	0.12 µM
NNC(=O)Cn1ncc2c3ccccc3n(CC(=O)NN)c2c1=O	GMSC normal cells	cytotoxicity, MTT	48 h	> 50 µM
CNC(=O)C1CCN(c2cc(C)c(F)cc2NC(=O)c2ccc(-c3cc(O)ccc3C)c(C)c2)CC1	12Z	cell growth or viability, ATP luminescence	72 h	2.83 µM
C=CC(OC(C)=O)c1cc(OC)c(OC(C)=O)c(OC)c1 (stereo not drawn)	RT-112	MTT	24 h	> 50 µM
COc1ccc(/C=C/C2=[N+]3C(=C(COC(C)=O)c4c(C)cc(/C=C/c5ccc(OC)cc5)n4[B-]3(F)F)C(C)=C2)cc1	RPE-1	phototoxicity, resazurin	added: 645 nm light, 9.00 J/cm2	2.9 ± 0.4 µM
CCn1[c]([Au-]([Cl])([Cl])[Cl])[n+](CC)c2ccc(C(=O)OC)cc21	RC-124 kidney epithelial	cell proliferation, crystal violet staining	96 h	6.4 ± 1.9 µM
CCCC(CCC)C(=O)[O][Pt]([NH2])([NH2])([Cl])([Cl])[O]C(=O)C(C)c1ccc(CC(C)C)cc1 (stereo not drawn)	C13 cisplatin-resistant	cytotoxicity, MTT	72 h	1.61 ± 0.42 µM
Cc1ccc2oc(-c3c4c(N)n[nH]c(=O)c4nn3-c3ccc(NC(=O)/C=C/CN(C)C)cc3)c(C)c2c1	Ba/F3 TEL-FGFR1	cell proliferation		< 0.0003 µM
CC1=C2[O][Ru-]([Cl])[O+]=C2C=CN1CCCCCCN1C=CC2=[O+][Ru-]([Cl])[O]C2=C1C.Cc1ccc(C(C)C)cc1.Cc1ccc(C(C)C)cc1	SISO-oxo oxoplatin-resistant	crystal violet	96 h	15.7 µM

SMILES	cell line	test	conditions	IC50
C=C(C)C(=O)Nc1ccc(-c2c(-c3ccc(Oc4nccc(C)n4)cc3)c3c(N)ncnc3n2C)cc1	SNU-16	cell growth or viability, ATP luminescence	96 h	0.006 µM
CC(C)c1cccc(C(C)C)c1N1CCN(c2c(C(C)C)cccc2C(C)C)C1=[Se].[Cl][Ag]	LoVo MDR	MTT	72 h	1.2 ± 0.4 µM
Cc1cnc(Nc2cc(C)c(C)c(C)c2)nc1Nc1ccc2oc(=O)[nH]c2c1	human CD14+ monocytes	CCL17 release	added: TSLP	0.0817 µM
C1=CCC=C1.[Cl][Au-]1([Cl])[N+](=P(c2ccccc2)(c2ccccc2)[c-]2cccc2)Cc2cccc[n+]21.[Fe+2].[O-][Cl+3]([O-])([O-])[O-]	A2780cisR (cisplatin-resistant)	cell growth, MTT	74 h, 1% DMSO	25.2 ± 4.3 µM
COc1ccc(NC(=O)N/N=C2\CC3(CCN(C)CC3)Oc3ccccc32)cc1	MCF7, HCT-116, PC-3	cell growth, MTT	range over cell lines	1.15 to 10.1 µM
O=C(CCl)Sc1nnc(-c2n[nH]c(=O)c3ccccc23)o1	HepG2 and MCF7	cell growth, MTT		5.5 to 15 µM
Cc1ccc(S(=O)(=O)c2c(-c3ccccc3)c3c(C)c4ccc(C)cc4n3c3ccccc23)cc1	LS174T	cell growth or viability, MTT	72 h	> 100 µM
Cc1c(-c2cccc(C3=NCCN3)c2)oc(-c2cccc(C3=NCCN3)c2)c1C	786-O	cell growth, SRB	96 h	3 µM
O=C1/C(=C/c2ccc(B(O)O)cc2)CC/C1=C\c1ccc(B(O)O)cc1	MCF7/HER2	cytotoxicity, MTT	24 h	62 ± 4.9 µM
Cc1c(C)c(C)[c-](C)c1C.OCc1ccnc(-c2[c-]cccc2)c1.[Cl-].[Ir+3]	A2780 cells	cell growth, SRB	24 h exposure, 72 h recovery	47 ± 1 µM
CC(C)c1cccc(C(C)C)c1-n1c(Cl)c(Cl)n(-c2c(C(C)C)cccc2C(C)C)c1=[Se].[Cl][Ag]	LoVo MDR	MTT	72 h	1.5 ± 0.3 µM
O=C(Cc1ccc2ccccc2c1)N[C@H](Cc1ccccc1)C(=O)N[C@H](Cc1ccc(OP(=O)(O)O)cc1)C(=O)N[C@H](Cc1ccccc1)C(=O)N[C@H](Cc1ccc(OP(=O)(O)O)cc1)C(=O)O	A2780cis	cell growth or viability, MTT		> 483 µg/mL
CC1(C)Cc2c(-c3ccccc3)c(-c3ccc(Cl)cc3)c(CC(=O)NCC(=O)O)n2C1	mouse peritoneal macrophages	PGI2 production	added: LPS	> 100 µM
COC(=O)[C@@]1(C)C=C(C(=O)NCc2cccc(C(=O)Nc3ccc(Nc4nccc(-c5cccnc5)n4)c(C)c3)c2)C(=O)CC1	SH-SY5Y MKK7-ACT	c-Jun phosphorylation, inhibitor, HTRF, refers to: phospho-c-Jun Ser63	6 h, added: doxycycline	0.747 ± 0.247 µM
COc1ccc(-c2cn(C)c3ncnc(N)c23)cc1	SNU-16	cell growth or viability, ATP luminescence	96 h	> 10 µM
C=C[CH2][Pd-]([Cl])[Cl].CC(C)c1cccc(C(C)C)c1-n1c[n+](-c2c(C(C)C)cccc2C(C)C)c2c1-c1cccc3cccc-2c13	C13 cisplatin-resistant	cell viability, MTT	72 h	3.5 ± 0.7 µM
C=C1C(=O)O[C@H]2CC3=C[C@@H](C/C(C)=C/[C@@H](OC(=O)/C=C/c4ccccc4)[C@H]12)OC3=O	A2058	cell growth or viability, MTT	24 h	3.9 µM
CCC(CC)c1nc(-c2ccc(O)cc2O)cs1	HEK293T	cell growth, PrestoBlue	72 h	14.7 µM
COc1ccc(/C=C/C2=[N+]3C(=C(C=O)c4c(C)c(Br)c(/C=C/c5ccc(OC)cc5)n4[B-]3(F)F)C(C)=C2Br)cc1	RPE-1	cell growth or viability, resazurin	dark	> 100 µM
Cc1c(C)c(C)[c-](C)c1C.O=[N+]([O-])c1c[c-]c(-c2ccccn2)cc1.[Cl-].[Ir+3]	A2780 cells	cell growth, SRB	24 h exposure, 72 h recovery	24.7 ± 2.3 µM
Fc1ccc(-c2cn(CSc3ccccc3)nn2)c(F)c1	JEG-3	cell growth or viability, MTS	72 h	35.5 µM
OCCCCCCCCOCCCc1cccnc1	WI26VA4	cell growth or viability, MTT	48 h	168 µM
CC(C)=CCC1=C([O-])C(=O)c2ccccc2C1=O.CC(C)=CCC1=C([O-])C(=O)c2ccccc2C1=O.[Cu+2].c1ccc(-c2ccnc3c2ccc2c(-c4ccccc4)ccnc23)cc1	MRC5 normal fibroblasts	cell viability, MTT	24 h	3.2 ± 0.1 µM
Clc1ccc(C=[N+]2N=C(Nc3ccccc3)[S][Pd-]2([Cl])[Cl])s1	CEM human lymphocytes	cell proliferation		60 µM
CC1CC(=O)N(CCCCCN)N=C1c1ccc(NC(=O)N2Cc3ccncc3C2)cc1 (stereo not drawn)	A549-C4.4a	cell viability, CellTiter-Glo		0.097 µM

For quick reference, copied from above:
SMILES	cell line	test	conditions	IC50
O=[N+]([O-])c1ccc(C=[N+]2N=C(Nc3ccccc3)[S][Pd-]2([Cl])[Cl])s1	CEM human lymphocytes	cell proliferation		30 µM
CC(=O)c1cnc(N)nc1N1CC[C@H]1c1nn2ccc(Cl)c2c(=O)n1-c1ccccc1	human CD4 T cells	cell proliferation	added: anti-CD3/anti-CD28	0.12 µM
NNC(=O)Cn1ncc2c3ccccc3n(CC(=O)NN)c2c1=O	GMSC normal cells	cytotoxicity, MTT	48 h	> 50 µM
CNC(=O)C1CCN(c2cc(C)c(F)cc2NC(=O)c2ccc(-c3cc(O)ccc3C)c(C)c2)CC1	12Z	cell growth or viability, ATP luminescence	72 h	2.83 µM
C=CC(OC(C)=O)c1cc(OC)c(OC(C)=O)c(OC)c1 (stereo not drawn)	RT-112	MTT	24 h	> 50 µM
COc1ccc(/C=C/C2=[N+]3C(=C(COC(C)=O)c4c(C)cc(/C=C/c5ccc(OC)cc5)n4[B-]3(F)F)C(C)=C2)cc1	RPE-1	phototoxicity, resazurin	added: 645 nm light, 9.00 J/cm2	2.9 ± 0.4 µM
